Measured values from different studies.
Lines come from different studies, so protocols differ. Values joined by “and” are separate records of one study, mostly repeats; a detail may differ.
UniProt O14626, sequence (whole entry, looked up): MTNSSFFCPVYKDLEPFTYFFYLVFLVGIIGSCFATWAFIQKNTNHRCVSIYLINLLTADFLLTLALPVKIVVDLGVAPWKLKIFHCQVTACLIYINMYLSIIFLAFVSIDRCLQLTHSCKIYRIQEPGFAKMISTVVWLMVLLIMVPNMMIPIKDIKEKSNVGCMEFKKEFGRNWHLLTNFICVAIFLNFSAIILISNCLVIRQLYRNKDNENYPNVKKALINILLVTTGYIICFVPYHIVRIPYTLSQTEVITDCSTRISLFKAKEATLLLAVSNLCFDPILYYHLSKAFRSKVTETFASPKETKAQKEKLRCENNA
UniProt Q7KZI7, sequence (whole entry, looked up): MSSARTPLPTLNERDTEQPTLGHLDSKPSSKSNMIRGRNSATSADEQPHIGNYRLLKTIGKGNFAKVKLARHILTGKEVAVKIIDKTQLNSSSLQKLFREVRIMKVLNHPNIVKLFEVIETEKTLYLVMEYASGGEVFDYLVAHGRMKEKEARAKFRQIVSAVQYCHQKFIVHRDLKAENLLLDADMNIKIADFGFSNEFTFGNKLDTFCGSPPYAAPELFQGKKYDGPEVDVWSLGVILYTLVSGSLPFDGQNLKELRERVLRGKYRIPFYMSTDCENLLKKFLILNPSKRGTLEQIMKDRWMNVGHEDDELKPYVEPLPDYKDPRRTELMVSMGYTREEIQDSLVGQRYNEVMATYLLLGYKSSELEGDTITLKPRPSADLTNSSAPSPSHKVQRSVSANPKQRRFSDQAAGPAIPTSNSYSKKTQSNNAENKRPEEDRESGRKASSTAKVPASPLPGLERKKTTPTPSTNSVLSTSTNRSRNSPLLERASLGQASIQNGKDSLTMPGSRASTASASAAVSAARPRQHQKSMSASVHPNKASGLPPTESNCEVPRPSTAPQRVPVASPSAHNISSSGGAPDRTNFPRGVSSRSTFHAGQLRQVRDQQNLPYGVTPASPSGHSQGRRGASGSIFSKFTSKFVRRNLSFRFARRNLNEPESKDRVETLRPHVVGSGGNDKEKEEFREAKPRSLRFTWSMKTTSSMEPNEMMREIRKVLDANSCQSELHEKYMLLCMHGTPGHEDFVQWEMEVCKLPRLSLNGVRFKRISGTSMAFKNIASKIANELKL
UniProt Q13233, sequence (whole entry, looked up): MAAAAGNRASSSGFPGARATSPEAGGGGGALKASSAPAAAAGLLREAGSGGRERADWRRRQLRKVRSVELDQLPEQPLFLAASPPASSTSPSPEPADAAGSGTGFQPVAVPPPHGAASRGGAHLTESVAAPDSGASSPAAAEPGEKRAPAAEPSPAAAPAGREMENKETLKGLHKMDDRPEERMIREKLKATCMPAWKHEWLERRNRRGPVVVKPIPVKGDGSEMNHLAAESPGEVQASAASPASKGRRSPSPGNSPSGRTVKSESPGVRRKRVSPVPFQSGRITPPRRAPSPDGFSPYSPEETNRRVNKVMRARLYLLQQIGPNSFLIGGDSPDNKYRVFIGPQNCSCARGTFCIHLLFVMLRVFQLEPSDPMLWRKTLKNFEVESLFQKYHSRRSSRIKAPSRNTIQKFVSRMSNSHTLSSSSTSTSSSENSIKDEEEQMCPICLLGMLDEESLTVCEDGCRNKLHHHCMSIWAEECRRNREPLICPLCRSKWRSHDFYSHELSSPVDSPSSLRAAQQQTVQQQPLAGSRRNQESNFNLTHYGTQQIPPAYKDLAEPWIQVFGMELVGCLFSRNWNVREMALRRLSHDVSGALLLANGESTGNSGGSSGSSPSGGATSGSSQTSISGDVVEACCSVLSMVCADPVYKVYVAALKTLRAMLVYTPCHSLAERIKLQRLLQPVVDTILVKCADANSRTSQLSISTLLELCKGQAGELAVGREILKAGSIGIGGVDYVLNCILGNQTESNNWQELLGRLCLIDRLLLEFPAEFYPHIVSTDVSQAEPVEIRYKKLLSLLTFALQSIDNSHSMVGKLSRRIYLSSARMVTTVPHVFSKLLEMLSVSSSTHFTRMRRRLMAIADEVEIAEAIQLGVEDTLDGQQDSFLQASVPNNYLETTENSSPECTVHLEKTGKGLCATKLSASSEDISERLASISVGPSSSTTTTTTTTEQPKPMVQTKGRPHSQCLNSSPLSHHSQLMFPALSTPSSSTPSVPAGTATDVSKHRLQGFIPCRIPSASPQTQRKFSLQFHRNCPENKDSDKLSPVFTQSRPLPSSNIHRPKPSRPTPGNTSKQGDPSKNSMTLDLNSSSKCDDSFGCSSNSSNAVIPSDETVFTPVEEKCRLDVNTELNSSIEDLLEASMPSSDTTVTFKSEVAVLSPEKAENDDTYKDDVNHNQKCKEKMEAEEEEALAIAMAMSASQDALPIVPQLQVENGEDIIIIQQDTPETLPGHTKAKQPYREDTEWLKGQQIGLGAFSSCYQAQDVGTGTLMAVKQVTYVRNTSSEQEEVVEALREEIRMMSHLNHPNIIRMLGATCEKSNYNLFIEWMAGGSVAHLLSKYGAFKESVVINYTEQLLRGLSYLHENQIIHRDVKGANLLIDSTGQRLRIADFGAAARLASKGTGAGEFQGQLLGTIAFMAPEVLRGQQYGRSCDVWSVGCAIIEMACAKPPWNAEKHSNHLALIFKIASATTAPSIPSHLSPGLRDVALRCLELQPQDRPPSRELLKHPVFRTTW
UniProt O75716, sequence (whole entry, looked up): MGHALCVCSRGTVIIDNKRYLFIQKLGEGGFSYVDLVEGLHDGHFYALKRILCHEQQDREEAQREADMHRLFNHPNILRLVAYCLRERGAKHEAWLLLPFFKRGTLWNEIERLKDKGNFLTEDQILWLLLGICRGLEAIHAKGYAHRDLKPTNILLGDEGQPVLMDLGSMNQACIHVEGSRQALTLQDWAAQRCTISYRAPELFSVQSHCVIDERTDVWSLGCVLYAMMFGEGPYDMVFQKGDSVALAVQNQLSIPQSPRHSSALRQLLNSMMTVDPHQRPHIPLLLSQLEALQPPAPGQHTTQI
UniProt P25021, sequence (whole entry, looked up): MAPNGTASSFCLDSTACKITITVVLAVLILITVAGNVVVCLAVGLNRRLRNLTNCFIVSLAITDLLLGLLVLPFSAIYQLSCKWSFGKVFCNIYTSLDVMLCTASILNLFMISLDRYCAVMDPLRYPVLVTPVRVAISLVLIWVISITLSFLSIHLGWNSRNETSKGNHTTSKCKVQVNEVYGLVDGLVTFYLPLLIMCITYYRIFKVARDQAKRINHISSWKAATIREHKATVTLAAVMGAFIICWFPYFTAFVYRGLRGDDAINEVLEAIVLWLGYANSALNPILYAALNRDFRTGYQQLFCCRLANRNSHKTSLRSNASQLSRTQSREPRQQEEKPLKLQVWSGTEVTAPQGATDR
UniProt P26358, sequence (whole entry, looked up): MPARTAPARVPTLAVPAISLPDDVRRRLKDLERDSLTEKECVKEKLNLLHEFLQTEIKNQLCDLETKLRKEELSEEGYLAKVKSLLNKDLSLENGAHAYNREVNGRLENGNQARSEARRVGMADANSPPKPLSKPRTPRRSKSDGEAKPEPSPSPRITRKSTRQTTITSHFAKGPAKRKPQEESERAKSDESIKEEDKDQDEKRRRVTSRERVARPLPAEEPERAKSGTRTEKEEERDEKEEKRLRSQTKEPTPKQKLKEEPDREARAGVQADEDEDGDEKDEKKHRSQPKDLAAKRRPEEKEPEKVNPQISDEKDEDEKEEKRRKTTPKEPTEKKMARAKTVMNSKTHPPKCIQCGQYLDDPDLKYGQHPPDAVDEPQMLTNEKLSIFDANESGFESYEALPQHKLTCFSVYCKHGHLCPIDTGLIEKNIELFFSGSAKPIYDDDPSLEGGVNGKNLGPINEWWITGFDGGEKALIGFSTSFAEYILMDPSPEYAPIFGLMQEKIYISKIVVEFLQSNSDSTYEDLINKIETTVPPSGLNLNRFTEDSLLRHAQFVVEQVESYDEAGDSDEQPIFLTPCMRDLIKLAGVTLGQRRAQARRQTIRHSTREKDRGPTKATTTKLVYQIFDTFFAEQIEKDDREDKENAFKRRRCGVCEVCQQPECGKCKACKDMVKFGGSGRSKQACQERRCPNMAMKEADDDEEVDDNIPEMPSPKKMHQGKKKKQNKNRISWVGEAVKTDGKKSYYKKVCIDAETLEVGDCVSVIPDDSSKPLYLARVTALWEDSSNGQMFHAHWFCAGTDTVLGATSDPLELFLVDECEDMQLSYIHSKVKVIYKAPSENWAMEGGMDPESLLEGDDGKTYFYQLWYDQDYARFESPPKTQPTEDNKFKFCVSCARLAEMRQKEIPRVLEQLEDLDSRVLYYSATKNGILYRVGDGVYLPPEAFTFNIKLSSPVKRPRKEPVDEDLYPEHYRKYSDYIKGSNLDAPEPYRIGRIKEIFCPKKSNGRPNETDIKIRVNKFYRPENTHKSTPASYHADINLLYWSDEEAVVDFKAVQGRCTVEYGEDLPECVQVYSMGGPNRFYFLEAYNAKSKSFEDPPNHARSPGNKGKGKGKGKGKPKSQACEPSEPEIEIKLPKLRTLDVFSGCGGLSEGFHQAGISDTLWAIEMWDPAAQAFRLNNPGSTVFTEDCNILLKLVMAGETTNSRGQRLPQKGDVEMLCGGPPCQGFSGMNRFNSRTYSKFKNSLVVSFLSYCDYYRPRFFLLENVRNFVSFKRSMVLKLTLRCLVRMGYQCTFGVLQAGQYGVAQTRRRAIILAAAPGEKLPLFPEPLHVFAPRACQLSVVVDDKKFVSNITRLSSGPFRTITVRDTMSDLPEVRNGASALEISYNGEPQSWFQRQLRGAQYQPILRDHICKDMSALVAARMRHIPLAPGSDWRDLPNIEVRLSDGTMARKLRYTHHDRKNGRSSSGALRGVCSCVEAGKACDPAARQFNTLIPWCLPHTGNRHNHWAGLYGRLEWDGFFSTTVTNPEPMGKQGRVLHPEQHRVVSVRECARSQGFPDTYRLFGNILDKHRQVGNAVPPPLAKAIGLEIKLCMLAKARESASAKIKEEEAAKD

With `FC(F)(F)c1cccc(Nc2nc(NCCOc3ccccc3)nc3[nH]cnc23)c1` the inhibition was 0% (MARK2 (Homo sapiens, UniProt Q7KZI7); enzyme activity, inhibitor, Thermo Fisher kinase screening; 5 µM).
The inhibition of `O=C(Nc1cnccc1Cl)N1CCN(Cc2ccc3c(c2)OC(F)(F)O3)CC1` is reported as 18.1% (Monoacylglycerol lipase ABHD6 (Abhd6, Rattus norvegicus, UniProt Q5XI64); probe labelling, inhibitor, competitive ABPP with azido-FP probe, item: ABHD6; rat brain membrane fraction; 10 µM).
`COc1cc2c(NC3CCN(C)CC3)cc(-c3ccc(C)o3)nc2cc1OCCCN1CCCC1` gave an inhibition of -4.97% (DNMT1 (Homo sapiens, UniProt P26358); enzyme activity; 5.08 nM).
The inhibition of `COc1cc(Nc2ncc(F)c(Nc3ccc4c(n3)NC(=O)C(C)(C)O4)n2)cc(OC)c1OC` is reported as 37% (MAP3K1 (Homo sapiens, UniProt Q13233); KINOMEscan; 10 µM).
For `COc1ccc(N2C(=O)N(c3c(C)cccc3Cl)Cc3cnc(Nc4ccc(C5CCN(C)CC5)cc4OC)nc32)nc1`, the inhibition was 5.53% (Aurora kinase A (AURKA, Homo sapiens, UniProt O14965); kinase activity, inhibitor; 0.5 µM, kinase AURORA-A).
`O=c1ccc2ccccc2o1` has an inhibition of 4.76% (HRH2 (Homo sapiens, UniProt P25021); antagonist radioligand binding; 10 µM, SafetyScreen44).
With `[2H]c1c([2H])c([C@]2([2H])CCCN2C(=O)C(C)(C)Oc2ccc3cn[nH]c3c2)c([2H])c([2H])c1C([2H])([2H])[2H]` the remaining binding was 88% (STK16 (Homo sapiens, UniProt O75716); KINOMEscan; 1 µM; relative to: DMSO control).
With `CN1CCN(c2cc(-c3ccncc3)c(-c3ccc4ccccc4c3)nn2)CC1` the inhibition was -1.2% (CHRM2 (Homo sapiens, UniProt P08172); antagonist, FLIPR; 10 µM).
The inhibition of `CN(C(=O)n1cnc(-c2ccc[n+]([O-])c2)c1)C1CCCCC1` is reported as 15% (GABAB1B receptor, human; binding; 50 µM, with: [3H]CGP-54626).
`CC[C@H](C)[C@H](NC(=O)[C@H](Cc1ccccc1)NC(=O)[C@H](CCC(=O)O)NC(=O)[C@H](CCCNC(=N)N)NC(=O)[C@H](C)NC(=O)[C@H](C)NC(=O)[C@H](CCC(N)=O)NC(=O)[C@H](CCC(=O)O)NC(=O)[C@H](CCC(=O)O)NC(=O)[C@H](CC(C)C)NC(=O)[C@H](Cc1ccc(O)cc1)NC(=O)[C@H](CO)NC(=O)[C@H](CO)NC(=O)[C@@H](NC(=O)[C@H](CC(=O)O)NC(=O)[C@H](CO)NC(=O)[C@@H](NC(=O)[C@H](Cc1ccccc1)NC(=O)[C@@H](NC(=O)CNC(=O)[C@H](CCC(=O)O)NC(=O)[C@H](C)NC(=O)CCc1cnc[nH]1)[C@@H](C)O)[C@@H](C)O)C(C)C)C(=O)N[C@@H](C)C(=O)N[C@@H](Cc1c[nH]c2ccccc12)C(=O)N[C@@H](CC(C)C)C(=O)N[C@H](C(=O)N[C@@H](CCCNC(=N)N)C(=O)NCC(=O)N[C@@H](CCCNC(=N)N)C(=O)N[C@@H](CCCCNC(=O)COCCOCCNC(=O)COCCOCCNC(=O)CC[C@H](NC(=O)CCCCCCCCCCCCCCCCC(=O)O)C(=O)O)C(=O)NCC(=O)NCC(=O)N[C@@H](CO)C(=O)N[C@@H](CCCCNc1c(NCCCCCN(O)C(=O)CCC(=O)NCCCCCN(O)C(=O)CCC(=O)NCCCCCN(O)C(C)=O)c(=O)c1=O)C(=O)NCC(=O)NCC(=O)N[C@@H](CO)C(=O)N[C@@H](CCCCNc1c(NCCCCCN(O)C(=O)CCC(=O)NCCCCCN(O)C(=O)CCC(=O)NCCCCCN(O)C(C)=O)c(=O)c1=O)C(=O)O)C(C)C` has an EC50 of 6.8 pM (GLP1R (Homo sapiens, UniProt P43220); cAMP reporter gene, agonist, CRE luciferase; BHK; with Zr, 0% HSA).
For `C[C@H]1CN(c2n[nH]c3nc(N[C@H]4CC[C@H](NS(=O)(=O)CCC(F)(F)F)CC4)ncc23)CCO1`, the relative abundance was 1.18 (Filamin-A (Homo sapiens, UniProt P21333); competitor, Kinobeads competition; human cell extract; 20 µM; relative to: vehicle).
`Oc1ccc2c3c1O[C@H]1[C@@H](O)CC[C@@]4(O)[C@@H](C2)N(CC2CCC2)CC[C@]314` — result for “log2 fold change”: 0.327 (G-protein coupled receptor 171 (GPR171, Homo sapiens, UniProt O14626); β-arrestin recruitment, TANGO luminescence, item: GPR171; concentration not given; relative to: basal luminescence).
`O=C(Nc1cccnn1)N1CCC(=Cc2cccc(Oc3ccc(C(F)(F)F)cn3)c2)CC1` has an inhibition of 23% and 13% (somatostatin sst5 receptor; concentration not given).

A few entries again:
`CC[C@H](C)[C@H](NC(=O)[C@H](Cc1ccccc1)NC(=O)[C@H](CCC(=O)O)NC(=O)[C@H](CCCNC(=N)N)NC(=O)[C@H](C)NC(=O)[C@H](C)NC(=O)[C@H](CCC(N)=O)NC(=O)[C@H](CCC(=O)O)NC(=O)[C@H](CCC(=O)O)NC(=O)[C@H](CC(C)C)NC(=O)[C@H](Cc1ccc(O)cc1)NC(=O)[C@H](CO)NC(=O)[C@H](CO)NC(=O)[C@@H](NC(=O)[C@H](CC(=O)O)NC(=O)[C@H](CO)NC(=O)[C@@H](NC(=O)[C@H](Cc1ccccc1)NC(=O)[C@@H](NC(=O)CNC(=O)[C@H](CCC(=O)O)NC(=O)[C@H](C)NC(=O)CCc1cnc[nH]1)[C@@H](C)O)[C@@H](C)O)C(C)C)C(=O)N[C@@H](C)C(=O)N[C@@H](Cc1c[nH]c2ccccc12)C(=O)N[C@@H](CC(C)C)C(=O)N[C@H](C(=O)N[C@@H](CCCNC(=N)N)C(=O)NCC(=O)N[C@@H](CCCNC(=N)N)C(=O)N[C@@H](CCCCNC(=O)COCCOCCNC(=O)COCCOCCNC(=O)CC[C@H](NC(=O)CCCCCCCCCCCCCCCCC(=O)O)C(=O)O)C(=O)NCC(=O)NCC(=O)N[C@@H](CO)C(=O)N[C@@H](CCCCNc1c(NCCCCCN(O)C(=O)CCC(=O)NCCCCCN(O)C(=O)CCC(=O)NCCCCCN(O)C(C)=O)c(=O)c1=O)C(=O)NCC(=O)NCC(=O)N[C@@H](CO)C(=O)N[C@@H](CCCCNc1c(NCCCCCN(O)C(=O)CCC(=O)NCCCCCN(O)C(=O)CCC(=O)NCCCCCN(O)C(C)=O)c(=O)c1=O)C(=O)O)C(C)C` has an EC50 of 6.8 pM (GLP1R (Homo sapiens, UniProt P43220); cAMP reporter gene, agonist, CRE luciferase; BHK; with Zr, 0% HSA).
For `C[C@H]1CN(c2n[nH]c3nc(N[C@H]4CC[C@H](NS(=O)(=O)CCC(F)(F)F)CC4)ncc23)CCO1`, the relative abundance was 1.18 (Filamin-A (Homo sapiens, UniProt P21333); competitor, Kinobeads competition; human cell extract; 20 µM; relative to: vehicle).
